{"data": "Measured values pooled from the literature", "note": "Numbered parts are unrelated; each lists some results of a single study."}
{"data": "Block 1", "target": "Histone acetyltransferase KAT6A, winged helix 1, GST fusion (KAT6A, Homo sapiens, UniProt Q92794, residues 1-85)", "method": "protein binding microarray", "form": "double-stranded DNA, one strand shown", "medium": "in vitro", "concentration": "not given", "notes": "8-mer, flanks averaged, mean of 2 arrays, mostly near background", "baseline": "not given", "direction": "higher = stronger binding", "Residues (chain)": "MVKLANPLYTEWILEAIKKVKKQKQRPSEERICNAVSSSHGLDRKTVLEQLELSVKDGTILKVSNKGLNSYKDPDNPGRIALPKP"}
{"Sequence": "CTCCACCC", "E-score": -0.0368}
{"Sequence": "CTTCTCAC", "E-score": -0.141}
{"Sequence": "GATTGTCA", "E-score": -0.05}
{"Sequence": "AGGATTAA", "E-score": 0.00411}
{"Sequence": "CCACAGGA", "E-score": -0.205}
{"Sequence": "ACCTCCGA", "E-score": -0.0489}
{"data": "Block 2", "target": "Sal-like protein 4, full length isoform A (SALL4, Homo sapiens, UniProt Q9UJQ4, residues 1-1053)", "method": "universal PBM", "form": "double-stranded DNA, one strand shown", "medium": "in vitro", "concentration": "600 nM", "notes": "8-mer, flanks averaged, mean of replicates", "direction": "higher = stronger binding", "UniProt Q9UJQ4, sequence (whole entry, looked up)": "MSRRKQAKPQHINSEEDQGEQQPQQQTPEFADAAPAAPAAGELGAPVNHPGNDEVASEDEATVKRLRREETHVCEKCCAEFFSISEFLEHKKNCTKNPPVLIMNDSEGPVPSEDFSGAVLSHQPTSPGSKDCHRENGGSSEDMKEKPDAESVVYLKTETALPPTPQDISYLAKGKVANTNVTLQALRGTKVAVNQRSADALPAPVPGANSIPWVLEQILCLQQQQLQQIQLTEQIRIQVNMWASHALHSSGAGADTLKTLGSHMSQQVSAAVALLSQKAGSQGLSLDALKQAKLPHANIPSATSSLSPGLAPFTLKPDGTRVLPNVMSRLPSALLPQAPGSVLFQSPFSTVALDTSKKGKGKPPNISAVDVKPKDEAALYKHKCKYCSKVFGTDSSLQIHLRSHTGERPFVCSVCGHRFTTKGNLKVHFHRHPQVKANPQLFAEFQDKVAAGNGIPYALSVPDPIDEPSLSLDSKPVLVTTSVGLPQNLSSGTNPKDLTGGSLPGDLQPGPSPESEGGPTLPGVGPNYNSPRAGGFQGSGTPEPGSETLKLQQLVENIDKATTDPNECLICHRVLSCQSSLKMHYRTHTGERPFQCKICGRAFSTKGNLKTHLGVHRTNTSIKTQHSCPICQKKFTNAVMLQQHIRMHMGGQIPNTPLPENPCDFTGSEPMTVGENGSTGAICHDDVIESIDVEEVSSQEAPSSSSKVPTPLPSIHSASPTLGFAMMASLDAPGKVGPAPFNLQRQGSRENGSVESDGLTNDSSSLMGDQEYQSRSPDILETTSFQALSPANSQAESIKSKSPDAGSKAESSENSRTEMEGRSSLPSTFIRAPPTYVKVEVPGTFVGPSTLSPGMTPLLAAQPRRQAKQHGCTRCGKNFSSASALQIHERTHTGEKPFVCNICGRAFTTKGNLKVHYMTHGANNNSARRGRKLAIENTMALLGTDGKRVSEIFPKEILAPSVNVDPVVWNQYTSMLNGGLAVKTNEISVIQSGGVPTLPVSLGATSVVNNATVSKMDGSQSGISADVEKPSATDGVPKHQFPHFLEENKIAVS"}
{"Sequence": "ATGATTTG", "E-score": 0.116}
{"Sequence": "ACGCTGAT", "E-score": 0.0768}
{"Sequence": "ATGCATTA", "E-score": 0.301}
{"Sequence": "CAAGGGCA", "E-score": -0.182}
{"Sequence": "ATAGGTGC", "E-score": -0.0121}
{"Sequence": "AGGAATAG", "E-score": 0.159}
{"data": "Block 3", "target": "Interferon regulatory factor 7, full length, phosphomimetic (IRF7, Homo sapiens, UniProt Q92985, residues 1-503, S101K/S471D/S472D/S475D/S476D/S477D/S483D/S484D/S487D)", "method": "protein-binding microarray", "form": "double-stranded DNA, one strand shown", "medium": "in vitro", "concentration": "250 nM", "notes": "60-bp whole probe", "added": "salmon DNA 0.4 mg/ml", "baseline": "random background probes", "direction": "higher = stronger binding", "shared flanks, not repeated": "GCCTAGCAC … GTCTTGATTCGCTTGACGCTGCTG", "Residues (chain)": "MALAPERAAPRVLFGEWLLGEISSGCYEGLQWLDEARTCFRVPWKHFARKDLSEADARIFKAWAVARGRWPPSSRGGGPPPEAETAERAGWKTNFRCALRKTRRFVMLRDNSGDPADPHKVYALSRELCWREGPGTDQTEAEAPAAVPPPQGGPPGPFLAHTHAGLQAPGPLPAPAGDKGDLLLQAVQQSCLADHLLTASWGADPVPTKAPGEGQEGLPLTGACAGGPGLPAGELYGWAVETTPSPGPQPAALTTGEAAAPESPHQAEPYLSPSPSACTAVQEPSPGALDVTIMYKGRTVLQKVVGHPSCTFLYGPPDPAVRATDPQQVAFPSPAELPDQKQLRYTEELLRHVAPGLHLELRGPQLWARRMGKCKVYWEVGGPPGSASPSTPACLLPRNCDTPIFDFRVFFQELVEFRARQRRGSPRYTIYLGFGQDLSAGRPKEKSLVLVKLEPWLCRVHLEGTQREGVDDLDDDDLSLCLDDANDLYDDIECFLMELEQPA"}
{"Sequence": "GACGGTCTCCTTATCCTGATGTGCTAG", "log fluorescence [z-score]": 0.263}
{"Sequence": "TCACATTTTTTTTCATCACTGTGCTAG", "log fluorescence [z-score]": 1.09}
{"Sequence": "GAGGGTATCGACTATCGGGACGTGCTA", "log fluorescence [z-score]": -0.606}
{"Sequence": "TGAGATCTCAGTATCGATTAGTGCTAG", "log fluorescence [z-score]": 0.624}
{"Sequence": "TTAGGTTTCGGGGCTGGGTTAGTGCTA", "log fluorescence [z-score]": 1.77}
{"Sequence": "TTAGGTTCCCTTTTCCCTTAGTGCTAG", "log fluorescence [z-score]": 4.37}
{"Sequence": "TTAGGTATCCTTCCCCTTTAGTGCTAG", "log fluorescence [z-score]": 0.535}
{"Sequence": "GACGATTTCAGAGTGGAGACGTGCTAG", "log fluorescence [z-score]": -0.225}
{"data": "Single results of other studies"}
{"Substance": "PhoQ, residues 284 288 289 292 302 303 SSCLAV", "target": "PhoP, residues 12 14 15 18 19 TQAIL (Escherichia coli, UniProt P23836)", "test": "Sort-seq, item: YFP reporter", "system": "E. coli", "setting": "PhoQ-PhoP variant library, added: 10 µM Mg2+", "scale": "baseline: high Mg2+ state, higher = stronger signaling", "quantity": "fold induction", "value": 8.18}
{"note": "A few entries again (block 3):"}
{"Sequence": "GACGGTCTCCTTATCCTGATGTGCTAG", "log fluorescence [z-score]": 0.263}
{"Sequence": "TCACATTTTTTTTCATCACTGTGCTAG", "log fluorescence [z-score]": 1.09}
